Measured values of several laboratories.
Compare with care: the assays were run in different laboratories. ± gives the spread as reported.

SMILES	assay	test system	setting	endpoint	value
N=C(N)NC(=O)c1nc(Cl)c(NCc2cc(Cl)cc(Cl)c2)nc1N	–	octanol/buffer	pH 11, urokinase ligand set	logP	3.62
NC(=O)N1c2ccccc2C=Cc2ccccc21	rotarod test	mouse, CCI neuropathic pain model	20 mg/kg	time to first slip	0.8 ± 0.08 min
CC[C@H](C)/C=C/C(=O)N1CCC[C@H]1C(=O)N[C@@H](CCC1CCCCC1)C(=O)N[C@H](C(=O)NC(C)(C)C(=O)N[C@@H](CC(C)C)C(=O)N[C@@H](CC(C)C)C(=O)NC(C)(C)C(=O)NC(C)(C)C(=O)NCCC(=O)N[C@@H](C)CN(C)C)[C@H](O)C(C)C	circular dichroism	phosphate buffer	pH 7.4, 20 °C	alpha-helix content	38.4%
COc1ncc(-c2nc3c(n2C(C)C)[C@H](c2ccc(Cl)cc2)N(c2cc(Cl)cn(C)c2=O)C3=O)c(OC)n1	–	human patients, plasma	oral, 400 mg, 0-24 h, high-dose arm, cycle 2 day 1	AUC(0-t) geometric mean	48100 ng·h/mL
COc1ccc(-n2c(SCC(N)=O)nnc2-c2cccs2)cc1	–	octanol/buffer	pH 11, known kinase inactives set	logP	1.66
COc1ccc2c(=O)n(C)c(-c3ccccc3)nc2c1	–	Sprague-Dawley rat, male, heart	oral, 30 mg/kg, 0.5 h	concentration	21.1 ng/g
CN(C)C(=O)c1cc2cnc(Nc3ccc(-c4ccc5c(=O)cc(N6CCOCC6)oc5c4)cc3)nc2n1C1CCCC1.Cl	–	Balb/c mouse, plasma	intravenous, 2 mg/kg	Vz	3 ± 0.7 L/kg
CCO[C@H]1CCN(Cc2c(OC)cc(C)c3[nH]ccc23)[C@H](c2ccc(C(=O)O)cc2)C1	–	PNH patients, active haemolysis	oral, 100 mg, 8 weeks, treatment	incidence of abdominal discomfort	0%
CN(C(=O)n1cnc(-c2ccc[n+]([O-])c2)c1)[C@H]1CC[C@H](O)CC1	–	rat, hippocampus	oral, 10 mg/kg single dose, 24 h	tissue concentration	13.2 ± 0.2 ng/g
O=C(O)CCc1cccc(O)c1O	–	human, cerebrospinal fluid	concentration not given, mean	CSF concentration	15.9 nM
Cc1cc(NC2CCN(C(=O)OC3CCN(C(=O)/C=C/CN(C)C)C3)CC2)n2ncc(C(C)C)c2n1 (stereo not drawn)	–	patients with advanced solid tumours	dose not given, QD arm, grade 3 or higher	patients with Dizziness	0%
CCN1/C(=C/C(C)=O)Sc2ccc(F)cc21	–	cynomolgus monkey	oral, 30 mg/kg, 24 h post-dose	diastolic blood pressure	75 ± 3 mmHg
CNCc1ccc(-c2[nH]c3cc(F)cc4c3c2CCNC4=O)cc1	measured: any adverse event	human patients	oral, 600 mg twice daily, grade 2	patients with adverse event	23.1%
O=C(O)c1cc(O)c(O)c(O)c1	–	rat, plasma	oral, 1000 mg/kg extract, possible metabolite or extract component	AUC(0-12 h)	14700 ± 2420 ng·h/mL
N#Cc1ccc2c(c1)[C@H]1CCCN(C(=O)c3ccc4[nH]cnc4c3)[C@H]1C2	–	human	360 mg, day 7	minimum ACTH level	3.5 pmol/L
C[Si]1(C)O[Si](C)(C)O[Si](C)(C)O[Si](C)(C)O[Si](C)(C)O1	–	–	0.001 to 0.003 µg/L, 34.8 °C	log KOA	4.67
CCN1CCN(Cc2ccc(Nc3ncc(F)c(-c4cc(F)c5nc6n(c5c4)[C@H](C)CCC6)n3)nc2)CC1	–	human, plasma	100 mg single dose, mean	Vd/F	2000 L
COc1ccc2[nH]cc(CCNC(=O)Nc3ccc(Cl)c(Cl)c3)c2c1	–	octanol/buffer	pH 11, known kinase inactives set	logP	5.33
CCc1cc(C(=O)NC)c2nccc(N3CCc4c(cc(Cn5ccnc5)cc4-c4cn(C)nc4C(F)(F)F)C3=O)c2c1	–	Sprague Dawley rats	oral, 50 mg/kg once daily, 7 days	serum TG level	1 ± 0.59 mmol/L
CC(C)(C)c1ccc(O)c(CN(Cc2cc(C(C)(C)C)ccc2O)C2CCC(NC(N)=O)CC2)c1 (stereo not drawn)	–	mouse brain	2000 ng/g, 3 months, -20 °C, long-term storage	recovery	100.8 ± 0.19%
NC1(C(=O)N[C@@H](CCO)c2ccc(Cl)cc2)CCN(c2nc[nH]c3nccc2-3)CC1	LC-MS/MS, non-compartmental	human patients, plasma	160/320 mg cohort, cycle 0, geometric mean, added: enzalutamide	Tmax	1.3 h

Some of these lines once more:
SMILES	assay	test system	setting	endpoint	value
CNCc1ccc(-c2[nH]c3cc(F)cc4c3c2CCNC4=O)cc1	measured: any adverse event	human patients	oral, 600 mg twice daily, grade 2	patients with adverse event	23.1%
